Measurements of several laboratories.
Every numbered part comes from another study and shows a few of its results, in no order.

Study 1
Target: RNA binding protein fox-1 homolog 2, RRM domain, GST-SBP tag (RBFOX2, Homo sapiens, UniProt O43251-10, residues 100-194)
Technique: RNA Bind-n-Seq
Molecule type: RNA
Medium: in vitro
Tested at: 365 nM
Setting: natural RNA segment, single round, ends assumed
Reference: no-protein control
Direction: higher = stronger binding
Target sequence (chain): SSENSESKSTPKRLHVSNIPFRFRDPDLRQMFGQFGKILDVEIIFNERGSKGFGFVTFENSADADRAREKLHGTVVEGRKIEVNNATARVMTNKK
Strand | RBNS enrichment (R)
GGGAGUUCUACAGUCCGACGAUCUGGUGAGAGGAGAAAGGAGCUUAUCCCCCAGACCCUGCUUUAUACCAUUCACAUCCCAGGGCUGUGUCCAGACAGCACAAAACGGCAAGGAGAGCCCAAGCCCCAAUGCCUGGAAUUCUCGGGUGCCAA | 0.307
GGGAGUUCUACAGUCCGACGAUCGGAGAACACCAGCCCCACCUGGACCCCGUGACCUUUGCCCUCUGACCUGCCACGGCCACCUCCGAGACAAAAUCCUUGCUGCUUCUCUUUCAUGGUGCUGUCCCGCCGGAUGGAAUUCUCGGGUGCCAA | 0.362
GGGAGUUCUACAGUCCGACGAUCGGGCUGGGCAGGCUGGGUGCCGGGCCCACCUUGGUGCUGCCGCGCUGCUCUUAGGUUUGUGUGUGUUUCUCUCCUGGCCAUCCACCCCGGCUGUGGGUCCACCCCAGCCGUGGAAUUCUCGGGUGCCAA | 0.308
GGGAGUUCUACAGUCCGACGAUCUCAGUGAGACACGCAGUUUGUGUUCAGUUUUUACAUCCUCUGAUUGUUUAUCUUGUGCAGAUAAACACAAAGAGAAGGUGCUUGCUAGCAGGGACACUGCUGCCAUGUCCUGGAAUUCUCGGGUGCCAA | 0.702
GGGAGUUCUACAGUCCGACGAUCUCUGUGAGUCCCUCUGGGCGGCUCGUGUACUGAUCGGAUCGGCACCAUGACACUUCCCCUAGACUGUGACUCCCAAAUGCAUAAUAUUAAUCUCAUUUGGCUUCUGGUUUUGGAAUUCUCGGGUGCCAA | 2.28
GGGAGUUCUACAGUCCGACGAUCUGUAUAUAAACUCCAAAGAGAAACACCCCAAUAGCCUAAGCAAUAAUGCAAAGAUCUUGCCCCUGCCAGUGGCAAGUGCCGACAAACCAAGUGCCUGUAGGCUCCUGGGAUGGAAUUCUCGGGUGCCAA | 0.597
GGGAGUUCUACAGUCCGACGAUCAUAAGUGCUAAGCUUAUUCUUUGGGCUUUGGGUGGCAAUUUUCAGUGAGGUAUUAAAUAUAUCUGAUACCUGAUGGGGCUGUGCCCCAUCCAGCCCUCAAAGUAGUCUCUUGGAAUUCUCGGGUGCCAA | 0.259
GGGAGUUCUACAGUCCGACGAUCGAAAGGACCCCCUCCUUAUGGAUUGCCUUGGCUUUGACCCUGAGCUAAGGCUGGCCCUAUUCCAUCCUUCUUCCUAGAUGAUGGGUGUGUUAAUGGGAGGAAGGAAAGAGUGGAAUUCUCGGGUGCCAA | 0.434
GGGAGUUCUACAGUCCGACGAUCUAGCACUGUCUCUUCCUGGCAGUGCUUUCUGCUCGCCCGACAGACAGCCUGUCGUGUCUCUUUGGACAGACGGACCAUCAGUGUAGAUAAUCAGCAUGCUUGUGCAUUACUGGAAUUCUCGGGUGCCAA | 1.79

Study 2
Target: RING finger protein unkempt homolog, zinc fingers 1-6, GST-SBP tag (UNK, Homo sapiens, UniProt Q9C0B0, residues 30-357)
Technique: RNA Bind-n-Seq
Molecule type: RNA
Medium: in vitro
Tested at: not given
Setting: RNA with constant flanks, human-mouse chimeric sites, ends assumed
Reference: input RNA pool
Direction: higher = stronger binding
Target sequence (chain): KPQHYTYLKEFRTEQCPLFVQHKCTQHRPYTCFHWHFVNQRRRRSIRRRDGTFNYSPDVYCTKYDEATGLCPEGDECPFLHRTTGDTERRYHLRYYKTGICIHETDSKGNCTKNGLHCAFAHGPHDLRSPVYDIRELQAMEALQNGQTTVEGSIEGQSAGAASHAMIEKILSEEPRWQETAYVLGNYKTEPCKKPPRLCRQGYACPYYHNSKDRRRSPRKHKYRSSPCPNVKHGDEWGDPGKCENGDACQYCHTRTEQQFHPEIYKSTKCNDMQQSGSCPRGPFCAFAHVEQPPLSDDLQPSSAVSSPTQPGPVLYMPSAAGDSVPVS
Strand | bound/input enrichment [ratio]
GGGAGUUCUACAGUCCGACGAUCAGAGAUAAGACAUCCAGGAACAUGCGAGGCUCCCGGAUGAAUGGACUUCCAAGUCCCACUCACAGCGCCCACUGUAGCUUCUACCGAACCAGAACCUUGCAGGCACUGAGUAAUGAGAAGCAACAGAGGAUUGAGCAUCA | 0.107
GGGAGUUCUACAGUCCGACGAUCCCCUCCCCGGGCCACCCGCCCGCCCAAGCUCCCCGCCGAGAUCCAGGUUUCUUCUUAUUUCAUAGCCAAUAAGAAAAAUGUUCUACGCACAUUUUGUCCUCAGUAAACGAGGGCCUCUGGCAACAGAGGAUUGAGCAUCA | 1.92
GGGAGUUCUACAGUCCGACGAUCUCAGGAACCCAGACAAAUAUGAAUGUAAAUGAAGUCAUUAGCAACAGAGCAAUUGAAAUGUUAGGAGGUGAACUUGGCAGCAAGAUACCUGUGCACCCCAAUGAUCAUGUUAACAAAAGCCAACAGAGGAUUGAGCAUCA | 0.424
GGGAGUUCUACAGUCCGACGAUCGGGGAGAAACCUUACGAGUGUGUGCAGUGUGGGAAAUCCUACAGUCAGAGCUCAAACCUCUUCAGACAUCAGAGAAGACACAAUGCAGAAAAACUUCUGAAUGUUGUGAAGGUUUAAGAACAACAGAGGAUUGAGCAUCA | 0.229
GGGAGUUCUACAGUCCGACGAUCUAAAUCCUGUGCCAGCACUUCGCUCAUAAAGUUUUAAAUUCUGGACCAAUAGUGUUUGUUUCCUGAUUAUUGUAUCCAAUACUUUGCCUAGUAUGUAACUCACUCUUCUGGAUAAAUAAACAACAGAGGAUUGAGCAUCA | 2.35
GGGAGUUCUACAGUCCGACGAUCUGACAAGGGCACUGCAGAGCCAUGCCUUUCCUUGACAUCCAGAAAAGGUUCGGCCUUAGCCUGGACCGGCACUUUAUGUUCCUAAGCGCAGAACAGCCCUAUAAGAACGCCGCUCGGUGCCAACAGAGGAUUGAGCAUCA | 0.0601
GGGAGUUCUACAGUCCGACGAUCGACCCACAGUGGUCUGAGGAGCAACUCAUUGCUGCAAAAUUCUGUUUUGCUGGCCUUGUUAUAGGGCAGACUGAAGUGGACAUCAUGAGUCAUGCCACACAAGCUAUUUUUGAAAUUCUGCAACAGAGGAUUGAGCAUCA | 0.194
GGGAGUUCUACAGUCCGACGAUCAAGCAACGCAAACUUGAAACAAUUCGUUAUCUUGCAGCCUCAGUGUUCACUUGCUUGUGGCAAUAGCUGGGGUUUUAUAGGUUCUGGAAGGAGAACUGACGAUGAUGCUGCCGCUGCUGCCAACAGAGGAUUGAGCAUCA | 0.19

Study 3
Target: Centromere-binding protein 1, full length, N-terminal tag (CBF1, Saccharomyces cerevisiae, UniProt P17106, residues 1-351)
Chain of UniProt P17106 (whole entry, looked up): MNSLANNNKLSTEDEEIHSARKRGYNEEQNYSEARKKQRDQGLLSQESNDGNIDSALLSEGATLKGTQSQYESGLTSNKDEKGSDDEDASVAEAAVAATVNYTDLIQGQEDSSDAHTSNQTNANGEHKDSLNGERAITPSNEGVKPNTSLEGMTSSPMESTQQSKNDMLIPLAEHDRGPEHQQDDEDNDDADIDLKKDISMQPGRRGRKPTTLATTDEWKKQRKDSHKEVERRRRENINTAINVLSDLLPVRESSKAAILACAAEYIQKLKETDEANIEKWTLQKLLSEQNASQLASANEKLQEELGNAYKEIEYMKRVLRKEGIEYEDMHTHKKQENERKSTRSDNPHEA
Technique: protein-binding microarray
Molecule type: double-stranded DNA, one strand shown
Medium: in vitro
Tested at: 0.8 µM
Setting: whole 60-bp probe, no competitor
Direction: higher = stronger binding
Strand | fluorescence intensity [a.u.]
GAAGTGGCTAGGAATCACGGAGACCTCTTGACTTAGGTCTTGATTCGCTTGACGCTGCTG | 553
GAATTAACTAGACGTCATGCGTATTGATTAACTTAGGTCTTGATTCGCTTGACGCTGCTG | 647
CTACTCCACAATGTTCACATGAGGGACAAGGTTTTCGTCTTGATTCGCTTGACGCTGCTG | 568
CTACCGATAATGAATCATCACGATGAATGACTATTCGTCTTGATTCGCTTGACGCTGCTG | 581
CCTAACTACTATATTCGCGTGGAATAGCTTCGTACAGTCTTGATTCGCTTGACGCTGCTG | 505
CTATATTTATACTGTCACGAAATTTACAGGAAGTTCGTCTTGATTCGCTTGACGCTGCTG | 648
CTAAGTCACGCTGAACACGCGGCGGTAGCTTCATTCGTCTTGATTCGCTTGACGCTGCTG | 935
CTATTTGGTAGTTTCCACGTTGGCCGCCTCTTCTTCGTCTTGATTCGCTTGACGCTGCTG | 502
TGTACGAAGCTATCTCATGTGTGTATAGTAGTTAGGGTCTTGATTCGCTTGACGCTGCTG | 519
GAATTTACGCCTGATCACCTTATATCTTCCGCTTAGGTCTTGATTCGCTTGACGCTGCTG | 609
CTACTTTGCTTTCTTGCTGATGTTGATCCCCGTTTCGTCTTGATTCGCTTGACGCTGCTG | 702
GAATACTTCAACAGATTCGTGATCTGGAAAAGATAGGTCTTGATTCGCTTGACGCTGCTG | 743
GAAATCACGCCACATCACGTGCACATTACTAGTTAGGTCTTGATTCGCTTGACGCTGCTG | 12200
GAATATCTTACTCATCACGCAAGACAGCAGCAGTAGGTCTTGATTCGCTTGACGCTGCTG | 582
TGTACGAAGCTATTTGGCGTGCCTATAGTAGTTAGGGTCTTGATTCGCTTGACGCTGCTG | 508
GAAATTTTTGTCCATATCGTGATAATTTTTTTGTAGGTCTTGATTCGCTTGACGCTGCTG | 644
GAATGTCTGCTACATATCGTGAGGTACGAATATTAGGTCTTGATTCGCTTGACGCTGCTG | 514
CTAAGTAGCGATAATCACGATCTTGTTAATGATTTCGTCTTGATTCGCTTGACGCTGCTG | 645

Study 4
Target: Histone acetyltransferase KAT6A, both winged helices, GST fusion (KAT6A, Homo sapiens, UniProt Q92794, residues 1-181)
Technique: protein binding microarray
Molecule type: double-stranded DNA, one strand shown
Medium: in vitro
Tested at: not given
Setting: 8-mer, flanks averaged, mean of 2 arrays, mostly near background
Reference: not given
Direction: higher = stronger binding
Target sequence (chain): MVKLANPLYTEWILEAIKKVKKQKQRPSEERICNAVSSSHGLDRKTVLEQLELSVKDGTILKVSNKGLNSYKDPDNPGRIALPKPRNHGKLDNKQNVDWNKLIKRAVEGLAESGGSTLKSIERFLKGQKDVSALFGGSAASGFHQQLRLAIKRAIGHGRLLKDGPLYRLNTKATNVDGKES
Strand | E-score
AAAAAGGA | -0.207
AGGCTTTG | -0.205
CTGAGATC | -0.0198
GCGATACA | 0.0257
GAAGGACA | 0.00732
CCAACGCG | 0.258
CGGGGTAA | 0.147
CCGATTAG | -0.00771
CGTCCCTC | -0.00887
AATGGAGT | -0.234
ATCCGTCC | 0.176
ATTAGTAA | -0.0918
GAAACTTC | -0.0228
CTGTTTCA | -0.0549
CTCCTCGC | -0.0258
ACGACAAG | -0.00225
AGCTTGCA | -0.161
GACCCCTC | -0.21
CGGGTACC | 0.138
ATTCAGGG | -0.149
ACCTGGCG | 0.0886
TCTTTTCA | 0.0218
CTTCTTGA | -0.0968
CTTCATCC | -0.138
CCCACAGG | -0.255

Excerpt of the above (study 3):
Strand | fluorescence intensity [a.u.]
CTACTCCACAATGTTCACATGAGGGACAAGGTTTTCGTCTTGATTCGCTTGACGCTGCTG | 568
CTACCGATAATGAATCATCACGATGAATGACTATTCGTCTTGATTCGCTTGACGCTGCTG | 581
CCTAACTACTATATTCGCGTGGAATAGCTTCGTACAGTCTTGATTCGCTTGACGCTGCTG | 505
CTATATTTATACTGTCACGAAATTTACAGGAAGTTCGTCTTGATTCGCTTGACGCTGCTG | 648
CTAAGTCACGCTGAACACGCGGCGGTAGCTTCATTCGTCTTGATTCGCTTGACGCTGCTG | 935
CTATTTGGTAGTTTCCACGTTGGCCGCCTCTTCTTCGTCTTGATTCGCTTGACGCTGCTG | 502
TGTACGAAGCTATCTCATGTGTGTATAGTAGTTAGGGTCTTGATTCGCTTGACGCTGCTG | 519
